Assay results from different studies.
Numbered parts are unrelated; each lists some results of a single study.

Study 1 — technique: protein binding microarray; molecule type: double-stranded DNA, one strand shown; matrix: in vitro; concentration: not given; reference: not given; reading: higher = stronger binding; endpoint: E-score
Target: Histone acetyltransferase KAT6A, winged helix 1, GST fusion (KAT6A, Homo sapiens, UniProt Q92794, residues 1-85)
Setting: 8-mer, flanks averaged, mean of 2 arrays, mostly near background
Construct (chain): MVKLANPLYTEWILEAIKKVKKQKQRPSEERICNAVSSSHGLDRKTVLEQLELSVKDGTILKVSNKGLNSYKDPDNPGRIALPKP
GGTAACAC: 0.0096
CTGCTTCA: -0.227
AAGAAACA: -0.0654
AGCGTACA: 0.00959
ATGATGAC: -0.156
ACTAAGCA: -0.0308

Study 2 — technique: competition protein-binding microarray; molecule type: double-stranded DNA, one strand shown; matrix: in vitro; concentration: 2 µM; together with: Cbf1 competitor, 0.05 µM; reading: higher = stronger binding; endpoint: fluorescence intensity
Target: Phosphate system positive regulatory protein PHO4, full length, GST-tagged (PHO4, Saccharomyces cerevisiae, UniProt P07270, residues 1-312)
Setting: whole 60-bp probe, lowest competitor level
Residues (chain): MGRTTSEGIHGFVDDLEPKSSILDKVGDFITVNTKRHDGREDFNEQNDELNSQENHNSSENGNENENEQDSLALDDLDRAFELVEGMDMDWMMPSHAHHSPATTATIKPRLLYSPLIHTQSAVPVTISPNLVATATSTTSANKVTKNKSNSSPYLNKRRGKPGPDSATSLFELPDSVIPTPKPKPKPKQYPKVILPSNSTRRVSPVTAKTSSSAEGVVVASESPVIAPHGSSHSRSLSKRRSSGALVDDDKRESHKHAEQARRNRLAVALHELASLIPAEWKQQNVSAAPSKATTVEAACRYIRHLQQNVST
CACCGACTGCTTCCGTGCGTGATGGGTAATGCAGTGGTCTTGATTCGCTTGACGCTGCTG: 7870 a.u.
CTTCTGTAAATTTGGGAAGTGGGTGGACGCGCCCCGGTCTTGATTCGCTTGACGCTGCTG: 4430 a.u.
AAAATCTGTATGACTCACGTGCAAATCATCCATGAGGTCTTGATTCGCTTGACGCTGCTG: 15000 a.u.
CATACCCAACCTTTTCACGTGTTATAAGATATTTGTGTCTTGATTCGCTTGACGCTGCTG: 17500 a.u.
CGTCCTAGTGATTGCCACGTGGGTGCCATGAGGAAGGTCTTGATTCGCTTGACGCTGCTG: 18700 a.u.

Study 3 — technique: protein-binding microarray; molecule type: double-stranded DNA, one strand shown; matrix: in vitro; concentration: 250 nM; setting: 60-bp whole probe; together with: salmon DNA 0.4 mg/ml; reference: random background probes; reading: higher = stronger binding; endpoint: log fluorescence
Target: Interferon regulatory factor 7, full length, phosphomimetic (IRF7, Homo sapiens, UniProt Q92985, residues 1-503, S101K/S471D/S472D/S475D/S476D/S477D/S483D/S484D/S487D)
Sequence of UniProt Q92985 (whole entry, unmodified, looked up): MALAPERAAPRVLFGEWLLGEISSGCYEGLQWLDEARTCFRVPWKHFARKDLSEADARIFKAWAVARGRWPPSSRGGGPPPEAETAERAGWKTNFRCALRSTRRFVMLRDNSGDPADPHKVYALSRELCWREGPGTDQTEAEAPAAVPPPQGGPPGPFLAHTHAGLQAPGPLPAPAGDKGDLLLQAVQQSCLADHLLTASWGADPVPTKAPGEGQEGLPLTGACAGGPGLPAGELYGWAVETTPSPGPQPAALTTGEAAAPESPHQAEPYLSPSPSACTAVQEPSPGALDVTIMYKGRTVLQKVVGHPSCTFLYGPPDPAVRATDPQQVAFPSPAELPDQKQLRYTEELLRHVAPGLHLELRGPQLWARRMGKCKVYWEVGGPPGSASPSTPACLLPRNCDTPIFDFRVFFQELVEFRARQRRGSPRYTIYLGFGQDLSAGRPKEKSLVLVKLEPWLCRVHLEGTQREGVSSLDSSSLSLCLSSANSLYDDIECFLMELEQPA
GCCTAGCACGACGGTGTCGGGTTTCGGGACGTGCTAGTCTTGATTCGCTTGACGCTGCTG: 0.771 z-score
GCCTAGCACTCCACTTGTCTTTTCATTTTGTGCTAGGTCTTGATTCGCTTGACGCTGCTG: 1.06 z-score
GCCTAGCACGACGAACTGGGGTATCGGGACGTGCTAGTCTTGATTCGCTTGACGCTGCTG: -0.364 z-score
GCCTAGCACGTGGTTCTGCTTCTTAGCGCGTGCTAGGTCTTGATTCGCTTGACGCTGCTG: 1.07 z-score

Single results of other studies
PhoQ, residues 284 288 289 292 302 303 NLAAMI — fold induction (PhoP, residues 12 14 15 18 19 LFHKL (Escherichia coli, UniProt P23836); Sort-seq, measured: YFP reporter; E. coli; PhoQ-PhoP variant library, together with: 10 µM Mg2+; reference: high Mg2+ state, higher = stronger signaling): 0.826

For quick reference, copied from above (study 3):
GCCTAGCACGTGGTTCTGCTTCTTAGCGCGTGCTAGGTCTTGATTCGCTTGACGCTGCTG: 1.07 z-score
